Measured values of several laboratories.
Every numbered part comes from another study and shows a few of its results, in no order. Substitutions count along the parent as printed.

Block 1
Target: RNA binding protein fox-1 homolog 2, RRM domain, GST-SBP tag (RBFOX2, Homo sapiens, UniProt O43251-10, residues 100-194)
Technique: RNA Bind-n-Seq
Form: RNA
Medium: in vitro
Concentration: 365 nM
Setting: natural RNA segment, single round, ends assumed
Baseline: no-protein control
Reading: higher = stronger binding
Shared flanks, not repeated: GGGAGUUCUACAGUCCGACGAUC … UGGAAUUCUCGGGUGCCAA
Construct (chain): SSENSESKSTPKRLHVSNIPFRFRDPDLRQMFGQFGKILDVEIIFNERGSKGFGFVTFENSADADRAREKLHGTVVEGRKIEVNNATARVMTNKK
Strand	RBNS enrichment (R)
UGGGGGUGGAGCUAUCACUUCCUCCAGAGGGAGGACAUCCCAGGGAUAGCACAAGUGAGUCAGAGUAUUUUCCCAGAGCUGGCGUGGAGGGGGCCCUCAGCGAGAGGUGA	0.731
CCAGUAGGGUCUGGACCCCAGCUCUUGCCUGACCUGGAAGUUGGCUGCCCAGGAGUAGAAGCCUGUUAGCUGCCUCCAUGGGUUUUAUACAGCUCUUCUUGCUUAGUGCG	0.415
UGGAGCACAUCAUGGCCACCAACCGGCUGGAUGAGGCGGAGCUGGGUCGCCUGCUACCCGACUGAUGUCCGUUGAGGGCUGCAGUCAGAGGCCCUGGACAGAAGCUCCAG	0.34
ACCUGGAGCUGUGGCAAUGAUGCCAGCAACCUGUGUCACCCAAAAUAGUCAAAAUCCAGCCCUCCACAGACACUCCCCAGGACCUGGGGAGGGAAGGGAUUUUGAGUCAC	0.273
GAAACCACAAGGCAUUUGAUGCUACCGUUCUGGUCAGGGAUUGGGCUGCUUCUUCAGUUCCUAAUACCAGACCAAGCCUCCUGAUGCCUUUCUGCACUGCAACUGUGUGA	0.412
UCCCUUUUUUCUUUGGAACUUGGCCACAGUUUCUCUGGGCUGUGCCUGCAUGACCAGCUGGCUUCAGUGAUUUCUCCGUUUCCCUCUUUAGUUUCUAGGAAGCCACUGUG	31.6
ACUGAGCAGUUAAAAAACACUGACAUAUUGCUUCCCUCAUGAAGUAAACGAUACAGGGAACUGGUUGAAGAGAUUGGAAUUUUAUUUAGUUGGCUUUGUUUUCCUUAAAG	0.411
AAUCCCUCCUCCCUCUAAACAGUCCCCCAGAAAACAGGCUGGUGGCCAUGUGCUUUGCAUCUUUCUUAUUUGAUUCUUUUAAAGAAGUGUAGGGAGGAAAACCUGUCAUU	0.362

Block 2
Target: CCNB3, cyclin fold, Cln2 fusion (human)
Technique: yeast growth competition, sequencing
Medium: yeast
Setting: weak parent motif
Baseline: not given
Reading: higher = stronger binding
Starting sequence: RB1 docking peptide (human); PKPLKKLRFDIEG; partner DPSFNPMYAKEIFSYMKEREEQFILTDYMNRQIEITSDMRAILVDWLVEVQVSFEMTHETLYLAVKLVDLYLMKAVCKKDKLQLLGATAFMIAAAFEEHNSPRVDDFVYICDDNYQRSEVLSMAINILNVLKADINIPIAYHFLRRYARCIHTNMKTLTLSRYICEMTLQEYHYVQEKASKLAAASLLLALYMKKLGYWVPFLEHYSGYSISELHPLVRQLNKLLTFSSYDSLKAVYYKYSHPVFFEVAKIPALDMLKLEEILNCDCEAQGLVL
Variant	normalised enrichment score
D10E	-0.305
K6S	0.124
R8L	-0.108
K2W	0.0901
L7F	0.0951
G13M	0.355
P1D	0.613
R8W	0.357
K5H	0.352
K5Q	0.3
P3D	0.432
P1N	-0.43

Block 3
Target: ABI1, truncated, D143A, DHFR fusion (Arabidopsis thaliana)
Technique: DHFR PCA, deep sequencing
Medium: yeast
Setting: methotrexate growth selection, single substitutions
Together with: (+)-ABA 0.0091 µM
Baseline: wild-type fitted maximum
Reading: higher = stronger binding
Starting sequence: PYL1, truncated, DHFR fusion (Arabidopsis thaliana); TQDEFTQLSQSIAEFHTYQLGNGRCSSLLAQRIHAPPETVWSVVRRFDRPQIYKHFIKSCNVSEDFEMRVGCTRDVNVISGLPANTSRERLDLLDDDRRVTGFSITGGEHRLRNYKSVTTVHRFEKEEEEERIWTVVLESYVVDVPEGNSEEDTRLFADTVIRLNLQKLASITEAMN; partner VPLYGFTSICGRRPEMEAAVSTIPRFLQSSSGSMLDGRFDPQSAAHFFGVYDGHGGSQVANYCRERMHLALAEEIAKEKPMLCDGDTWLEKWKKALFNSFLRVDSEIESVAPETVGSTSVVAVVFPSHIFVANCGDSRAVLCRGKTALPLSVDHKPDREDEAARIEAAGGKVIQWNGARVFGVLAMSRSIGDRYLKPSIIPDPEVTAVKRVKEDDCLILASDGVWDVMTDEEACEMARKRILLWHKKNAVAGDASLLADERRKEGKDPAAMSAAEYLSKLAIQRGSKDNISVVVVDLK
Variant	relative binding score
S104Q	-8.68%
G71R	-3.49%
A30K	14.4%
H34D	39.9%
T17E	2.41%
L156F	9.16%
E128G	71.6%

Other studies, line by line
Molecule	target	assay	system	conditions	how to read	measurement	result
PhoQ, residues 284 288 289 292 302 303 AQGLTV	PhoP, residues 12 14 15 18 19 NNFVT (Escherichia coli, UniProt P23836)	Sort-seq, item: YFP reporter	E. coli	PhoQ-PhoP variant library, together with: 10 µM Mg2+	baseline: high Mg2+ state, higher = stronger signaling	fold induction	6.35

Excerpt of the above (block 2):
Variant	normalised enrichment score
R8W	0.357
K5H	0.352
K5Q	0.3
P3D	0.432
